Assay results gathered from unrelated publications.
Each line is one published result; not all experiments were run side by side. Several values in a cell are separate wells, animals, samples, runs or records. Numbers after ± are the reported error.
Sequence of UniProt P10635 (whole entry, looked up): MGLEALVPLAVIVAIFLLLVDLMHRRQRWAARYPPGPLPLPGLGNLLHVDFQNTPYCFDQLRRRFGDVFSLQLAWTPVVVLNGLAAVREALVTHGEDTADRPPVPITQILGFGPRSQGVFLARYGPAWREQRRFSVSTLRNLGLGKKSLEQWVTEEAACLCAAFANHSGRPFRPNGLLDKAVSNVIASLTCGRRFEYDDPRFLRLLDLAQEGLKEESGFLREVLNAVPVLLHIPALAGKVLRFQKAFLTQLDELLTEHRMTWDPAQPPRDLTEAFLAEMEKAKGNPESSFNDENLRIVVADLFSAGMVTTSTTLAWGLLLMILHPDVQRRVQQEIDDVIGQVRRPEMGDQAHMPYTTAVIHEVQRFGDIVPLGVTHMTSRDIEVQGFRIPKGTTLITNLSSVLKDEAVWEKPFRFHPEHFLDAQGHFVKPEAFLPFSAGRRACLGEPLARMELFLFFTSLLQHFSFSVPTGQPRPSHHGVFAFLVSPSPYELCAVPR
Sequence of UniProt Q12809 (whole entry, looked up): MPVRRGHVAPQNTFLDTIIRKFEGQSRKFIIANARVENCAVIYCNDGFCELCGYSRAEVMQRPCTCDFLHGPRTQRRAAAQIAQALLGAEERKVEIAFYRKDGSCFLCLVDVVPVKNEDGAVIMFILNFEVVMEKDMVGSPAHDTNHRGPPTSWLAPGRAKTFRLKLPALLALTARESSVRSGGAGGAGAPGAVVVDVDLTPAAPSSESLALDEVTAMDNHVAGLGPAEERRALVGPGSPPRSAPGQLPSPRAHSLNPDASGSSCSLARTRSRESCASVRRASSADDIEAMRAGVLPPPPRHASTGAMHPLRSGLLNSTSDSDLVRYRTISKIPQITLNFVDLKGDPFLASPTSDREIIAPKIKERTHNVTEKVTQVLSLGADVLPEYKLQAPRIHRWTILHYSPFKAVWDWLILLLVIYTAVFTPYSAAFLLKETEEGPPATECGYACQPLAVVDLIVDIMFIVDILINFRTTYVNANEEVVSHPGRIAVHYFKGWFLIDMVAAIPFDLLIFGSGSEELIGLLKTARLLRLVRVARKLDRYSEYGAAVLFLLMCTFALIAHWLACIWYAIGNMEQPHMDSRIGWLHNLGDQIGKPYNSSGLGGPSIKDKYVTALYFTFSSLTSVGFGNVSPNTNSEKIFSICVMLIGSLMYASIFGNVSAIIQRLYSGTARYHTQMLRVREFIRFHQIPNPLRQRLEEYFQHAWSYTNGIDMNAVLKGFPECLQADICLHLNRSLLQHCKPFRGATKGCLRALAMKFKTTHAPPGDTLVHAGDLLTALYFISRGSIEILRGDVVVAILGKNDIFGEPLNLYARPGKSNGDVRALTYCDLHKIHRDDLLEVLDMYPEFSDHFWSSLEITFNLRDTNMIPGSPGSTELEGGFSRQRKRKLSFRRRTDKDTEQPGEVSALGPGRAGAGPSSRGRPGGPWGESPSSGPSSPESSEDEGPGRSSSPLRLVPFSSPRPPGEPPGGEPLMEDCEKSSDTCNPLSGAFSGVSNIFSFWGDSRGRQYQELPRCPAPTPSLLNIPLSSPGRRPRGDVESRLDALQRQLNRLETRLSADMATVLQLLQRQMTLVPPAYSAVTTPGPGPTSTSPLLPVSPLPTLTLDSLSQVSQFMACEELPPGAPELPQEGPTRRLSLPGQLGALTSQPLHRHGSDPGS

O=C(OC[C@@]1(O)C(=O)C=C[C@H]2[C@@H]1[C@H]1C=C[C@@H]2C(=O)[C@]1(O)COC(=O)c1ccccc1)c1ccccc1  viability (SW480; cell growth or viability, MTT; 50 µg/mL): 60.2%
Nc1nc2cc(C(=O)c3ccc(F)cc3)ccc2[nH]1  revertants (Salmonella typhimurium; Ames preincubation test; TA98; 156.0 µg/plate, without S9): 17.3 revertants/plate
COc1cccc(OC)c1-c1cc(C(=O)NC2(C(=O)O)C3CC4CC(C3)CC2C4)nn1-c1ccc(C(=O)N(C)CCOCCOCCN(C)C(=O)[C@H](CCCCNC(=O)[C@H](CC(C)C)NC(=O)C2OC2C(=O)O)NC(=O)CN2CCN(CC(=O)[O-])CCN(CC(=O)[O-])CCN(CC(=O)[O-])CC2)cc1C(C)C.[177Lu+3] (mixture of isomers)  tracer uptake (HT-29 tumour model; host not given, bone; 72 h, tumour-bearing): 0.31 %ID/g
C[C@@H](Nc1c(-c2c(F)cc(C#N)cc2F)c(Cl)nc2ncnn12)C(C)(C)C  mutagenicity (Salmonella typhimurium; Ames test; TA98 and TA100; 3.9 to 125 µg/mL): negative
O=C(Nc1cnccc1-c1ccc([18F])cc1)c1ccnc(NC(=O)C2CC2)c1  SUV (FVB/NJ mice, both sexes, brain; intravenous, 5 min, median, P-gp inhibitor pretreatment, added: tariquidar 15 mg/kg iv): 1.02
N#C[C@@H]1CC(F)(F)CN1C(=O)CNC(=O)c1ccnc2c(NC(=O)[C@H](CCCCNC(=O)CCOCCOCCOCCOCCOCCOCCNC(=O)CN3CCN(CC(=O)[O-])CCN(CC(=O)[O-])CCN(CC(=O)[O-])CC3)NC(=O)CCCc3ccc(I)cc3)cccc12.[177Lu+3]  tracer uptake (U-87 MG tumour model; host not given, liver; 96 h, tumour-bearing): 0.91 %ID/g
O=C1C2CC3CC1CC(C(=O)N1CCN(c4ccc([N+](=O)[O-])c5ncccc45)CC1)(C3)C2  revertant fold increase (Salmonella typhimurium; Ames test; TA100; 0.02 µg/well, without S9; reference: vehicle): 1
N#C[C@@H]1CC(F)(F)CN1C(=O)CNC(=O)c1ccnc2c(NC(=O)[C@@H](N)CCCCNC(=O)CCOCCOCCOCCOCCOCCOCCNC(=O)CN3CCN(CC(=O)[O-])CCN(CC(=O)[O-])CCN(CC(=O)[O-])CC3)cccc12.[177Lu+3]  tracer uptake (U-87 MG tumour model; host not given, pancreas; 1 h, tumour-bearing): 0.37 %ID/g
Cc1cccc(Cn2ncc3c4cc(F)c(CN(C)C)cc4n(C)c3c2=O)n1  plasma concentration (Dutch-belted rabbit, plasma; intravitreal, 1 µM vitreous, 1.00 days): not detected
COc1cccc(OC)c1-c1cc(C(=O)NC2(C(=O)O)C3CC4CC(C3)CC2C4)nn1-c1ccc(C(=O)N(C)CCCN(C)C(=O)[C@H](CCCCNC(=O)[C@H](CC(C)C)NC(=O)C2OC2C(=O)O)NC(=O)CN2CCN(CC(=O)[O-])CCN(CC(=O)[O-])CCN(CC(=O)[O-])CC2)cc1C(C)C.[177Lu+3] (mixture of isomers)  tracer uptake (HT-29 tumour model; host not given, stomach; 24 h, tumour-bearing): 0.097 %ID/g
C=C(NC(=O)c1csc(-c2nc3c(cc2O)-c2nc(cs2)C(=O)NC(C(C)O)C(=O)NC(=C(C)OC)c2nc(cs2)C(=O)NC2c4nc(cs4)C(=O)NC(COC(=O)c4c5c6c(cccc6n4O)COC(=O)C(OC4CC(C)(O)C(N(C)C)C(C)O4)C2OC5)c2nc-3cs2)n1)C(N)=O (centres unmarked)  AUC(0-t) (ICR mice, Streptococcus pneumoniae ATCC 49169 infected, immunocompromised, blood; intravenous, 4 mg/kg once daily): 0.216 µM·h
COc1cccc(OC)c1-c1cc(C(=O)NC2(C(=O)O)C3CC4CC(C3)CC2C4)nn1-c1ccc(C(=O)N(C)CCCN(C)CCCN(C)C(=O)[C@H](CCCCNC(=O)[C@H](CC(C)C)NC(=O)C2OC2C(=O)O)NC(=O)CN2CCN(CC(=O)[O-])CCN(CC(=O)[O-])CCN(CC(=O)[O-])CC2)cc1C(C)C.[177Lu+3] (mixture of isomers)  tracer uptake (HT-29 tumour model; host not given, stomach; 4 h, tumour-bearing): 1.3 %ID/g
N#C[C@@H]1CC(F)(F)CN1C(=O)CNC(=O)c1ccnc2c(NC(=O)CCOCCOCCOCCOCCOCCOCCNC(=O)[C@H](CCCCNC(=O)CN3CCN(CC(=O)[O-])CCN(CC(=O)[O-])CCN(CC(=O)[O-])CC3)NC(=O)CCCc3ccc(I)cc3)cccc12.[177Lu+3]  tracer uptake (U-87 MG tumour model; host not given, liver; 48 h, tumour-bearing): 0.94 %ID/g
FC(F)(F)c1cc2nc(c1)CNCc1cc(C(F)(F)F)cc(n1)CNC2.[Cu+2]  anodic peak potential (Cu(II)/Cu(I) redox couple; cyclic voltammetry; DMF; added: TBAP; reference: Fc/Fc+): -575 mV
N#C[C@@H]1CCCN1C(=O)CNC(=O)c1ccnc2ccc(OCCCN3CCN(C(=O)CCc4ccc(O)c(CN5CCN6CC(=O)[O][Al-]([18F])([O]C(=O)C5)[O]c5ccc(CCC(=O)N7CCN(CCCOc8ccc9nccc(C(=O)NCC(=O)N%10CCC[C@H]%10C#N)c9c8)CC7)cc5C6)c4)CC3)cc12 (some centres unmarked)  tracer uptake (U-87 MG tumour model; host not given, liver; 2 h, tumour-bearing): 4.42 %ID/g
COCC1CN(C2CCN(c3cc(OC)c(Nc4ncc(Br)c(Nc5ccc6c(c5P(C)(C)=O)OCCO6)n4)cc3C)CC2)C1  serious adverse events (first-in-human trial; human; oral, 60 mg once daily; treatment-related): 0%
O=C1NC2(CC2)COc2ncc(F)cc2[C@H]2COCCN2c2ccn3ncc1c3n2  inhibition (KCNH2 (Homo sapiens, UniProt Q12809); potassium current, whole-cell patch clamp; CHO cells expressing hERG; 13.33 µM): 44.2 ± 5.17%
Cl.NCc1ccc2c(c1)CN(C1CCC(=O)NC1=O)C2=O (centres unmarked)  minimum viability (H929; concentration not given, 72 h): 98% and 98.4%
Clc1cc2nc(c1)CNCc1cc(Cl)cc(n1)CNC2.[Cu+2]  peak potential separation (Cu(II)/Cu(I) redox couple; cyclic voltammetry; DMF; 0.1 M TBAP, 100 mV/s scan): 102 mV
CC(C)(C)NCC(SS(=O)(=O)O)c1ccccc1 (centres unmarked)  body weight decrease (Schistosoma mansoni; perfusion day 44; infected Swiss Webster mice; 600 mg/kg single dose, dosed day 1 post-infection; reference: vehicle control): 9%
CNC(=O)C1CCCN(C(=O)C2CC3CCC2N3C(=O)[C@@H]2C[C@@H](O)CN2C(=O)NCc2cccc(Cl)c2F)C1 (mixture of isomers)  dextrorphan formation (Cytochrome P450 2D6 (CYP2D6, Homo sapiens, UniProt P10635); enzyme activity, inhibitor, time-dependent inhibition; 0.617 µM, preincubated without NADPH): 158 ng/mL
CC(C)OCCOCc1ccc(OCC(O)CN(N=O)C(C)C)cc1 (centres unmarked)  revertant fold increase (Salmonella typhimurium; Ames test; TA98; 500 µg/plate, 30 % rat S9; reference: solvent control): 0.6 fold
CCN(CC)CC#CCNc1ccnc2cc(Cl)ccc12  revertants (Salmonella typhimurium; mini-Ames test; TA102; 500.0 µg/well, with rat liver S9): 83 revertants/well and 90 revertants/well
